{"data": "Published values from different studies", "note": "Values joined by “and” are separate records of one study, mostly repeats; a detail may differ. ± gives the spread as reported.", "chain of UniProt Q86UE8 (whole entry, looked up)": "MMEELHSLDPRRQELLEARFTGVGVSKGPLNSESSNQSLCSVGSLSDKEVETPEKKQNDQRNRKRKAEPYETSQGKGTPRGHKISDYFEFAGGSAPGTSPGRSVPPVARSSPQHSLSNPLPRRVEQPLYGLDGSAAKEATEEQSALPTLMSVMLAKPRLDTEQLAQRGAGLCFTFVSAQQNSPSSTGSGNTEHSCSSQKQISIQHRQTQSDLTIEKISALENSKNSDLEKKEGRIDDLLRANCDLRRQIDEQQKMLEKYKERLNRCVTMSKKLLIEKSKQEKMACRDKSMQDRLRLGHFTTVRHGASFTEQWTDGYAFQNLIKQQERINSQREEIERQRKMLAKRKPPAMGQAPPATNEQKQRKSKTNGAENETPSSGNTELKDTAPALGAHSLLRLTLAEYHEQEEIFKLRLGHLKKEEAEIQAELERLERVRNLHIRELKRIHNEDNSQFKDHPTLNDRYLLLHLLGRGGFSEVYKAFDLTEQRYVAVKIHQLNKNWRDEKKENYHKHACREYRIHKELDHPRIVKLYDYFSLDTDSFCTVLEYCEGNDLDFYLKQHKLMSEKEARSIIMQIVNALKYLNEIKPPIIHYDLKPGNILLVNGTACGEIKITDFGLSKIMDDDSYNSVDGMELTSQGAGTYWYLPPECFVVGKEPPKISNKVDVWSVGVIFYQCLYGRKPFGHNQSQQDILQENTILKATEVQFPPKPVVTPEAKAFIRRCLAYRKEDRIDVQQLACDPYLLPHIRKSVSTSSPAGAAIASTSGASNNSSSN", "chain of UniProt Q15349 (whole entry, looked up)": "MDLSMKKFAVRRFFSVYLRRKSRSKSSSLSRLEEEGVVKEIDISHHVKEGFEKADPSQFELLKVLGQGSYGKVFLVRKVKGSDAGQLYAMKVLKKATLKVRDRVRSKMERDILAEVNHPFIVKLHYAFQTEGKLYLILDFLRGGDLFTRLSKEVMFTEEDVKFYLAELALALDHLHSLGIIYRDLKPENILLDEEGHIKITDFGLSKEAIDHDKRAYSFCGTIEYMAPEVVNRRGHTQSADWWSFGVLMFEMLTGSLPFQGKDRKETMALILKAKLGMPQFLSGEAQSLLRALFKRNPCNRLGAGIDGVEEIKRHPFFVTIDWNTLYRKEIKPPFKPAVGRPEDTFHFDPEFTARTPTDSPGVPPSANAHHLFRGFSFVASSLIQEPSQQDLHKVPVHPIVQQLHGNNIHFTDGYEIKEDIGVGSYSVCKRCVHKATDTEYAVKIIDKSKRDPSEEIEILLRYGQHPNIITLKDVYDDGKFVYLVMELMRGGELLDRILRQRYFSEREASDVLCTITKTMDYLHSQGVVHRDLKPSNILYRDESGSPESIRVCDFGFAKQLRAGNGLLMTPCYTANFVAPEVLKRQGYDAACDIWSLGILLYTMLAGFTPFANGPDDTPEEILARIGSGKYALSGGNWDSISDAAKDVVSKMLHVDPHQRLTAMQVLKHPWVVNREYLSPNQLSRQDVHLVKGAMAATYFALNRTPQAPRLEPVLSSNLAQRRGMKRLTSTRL", "chain of UniProt P08183 (whole entry, looked up)": "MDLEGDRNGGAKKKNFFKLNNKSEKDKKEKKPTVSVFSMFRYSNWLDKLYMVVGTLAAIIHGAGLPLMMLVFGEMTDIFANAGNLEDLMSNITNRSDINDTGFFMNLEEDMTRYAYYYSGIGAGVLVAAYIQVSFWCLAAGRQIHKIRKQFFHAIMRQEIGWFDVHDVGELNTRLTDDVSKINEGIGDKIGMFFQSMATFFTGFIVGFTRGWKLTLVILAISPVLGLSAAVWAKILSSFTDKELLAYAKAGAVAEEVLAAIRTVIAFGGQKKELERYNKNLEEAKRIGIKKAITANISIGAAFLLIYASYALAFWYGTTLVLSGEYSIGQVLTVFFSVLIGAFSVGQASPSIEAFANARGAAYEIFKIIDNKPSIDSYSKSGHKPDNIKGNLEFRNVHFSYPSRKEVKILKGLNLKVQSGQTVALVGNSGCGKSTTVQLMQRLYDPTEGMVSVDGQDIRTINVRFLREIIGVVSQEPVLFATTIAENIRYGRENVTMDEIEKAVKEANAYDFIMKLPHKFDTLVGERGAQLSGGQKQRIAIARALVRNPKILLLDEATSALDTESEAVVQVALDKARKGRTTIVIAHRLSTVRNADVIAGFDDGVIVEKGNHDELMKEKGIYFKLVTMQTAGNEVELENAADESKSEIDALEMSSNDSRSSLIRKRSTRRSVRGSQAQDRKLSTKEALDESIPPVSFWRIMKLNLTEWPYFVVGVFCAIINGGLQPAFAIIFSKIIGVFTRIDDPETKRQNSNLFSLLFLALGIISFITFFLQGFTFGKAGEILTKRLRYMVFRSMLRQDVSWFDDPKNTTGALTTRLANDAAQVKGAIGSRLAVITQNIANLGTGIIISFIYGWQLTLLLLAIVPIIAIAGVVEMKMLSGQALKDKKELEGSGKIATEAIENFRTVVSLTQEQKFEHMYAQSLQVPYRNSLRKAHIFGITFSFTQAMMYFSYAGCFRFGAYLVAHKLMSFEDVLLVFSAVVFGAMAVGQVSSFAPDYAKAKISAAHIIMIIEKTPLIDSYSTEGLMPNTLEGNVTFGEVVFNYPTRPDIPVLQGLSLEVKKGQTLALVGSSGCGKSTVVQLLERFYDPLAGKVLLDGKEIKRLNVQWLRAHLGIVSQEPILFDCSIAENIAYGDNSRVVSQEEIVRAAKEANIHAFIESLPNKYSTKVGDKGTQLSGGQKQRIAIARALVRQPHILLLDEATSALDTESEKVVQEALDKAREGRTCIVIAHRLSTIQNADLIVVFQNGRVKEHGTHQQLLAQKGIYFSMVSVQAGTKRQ"}
{"SMILES": "O=C1NC2(CC2)COc2ncc(F)cc2[C@H]2COCCN2c2ccn3ncc1c3n2", "test system": "Sprague-Dawley rats, female, blood", "conditions": "oral, 2.5 mg/kg/day, end of recovery, 4-week subacute toxicity", "measurement": "eosinophil percentage", "result": "1.74 ± 0.42%"}
{"SMILES": "Cc1cc(-c2ccc3ccccc3c2)nnc1NCCN1CCN(C)CC1", "tested on": "ATP-dependent translocase ABCB1 (ABCB1, Homo sapiens, UniProt P08183)", "assay": "transport", "conditions": "concentration not given", "measurement": "inhibition", "result": "negative"}
{"SMILES": "CC[C@H](C)[C@H](NC(=O)[C@H](CCCCN)NC(=O)CNC(=O)[C@H](CC(C)C)NC(=O)[C@H](Cc1ccccc1)NC(=O)[C@H](CCCCN)NC(=O)[C@H](CO)NC(=O)[C@H](Cc1ccccc1)NC(=O)[C@H](Cc1c[nH]c2ccccc12)NC(=O)[C@H](CCC(N)=O)NC(=O)[C@@H](NC(=O)[C@H](Cc1ccccc1)NC(=O)CCCCCNC(=O)CN1CCN(CC(=O)O)CCN(CC(=O)O)CCN(CC(=O)O)CC1)C(C)C)C(=O)N[C@@H](CCC(=O)O)C(=O)N1CCC[C@H]1C(=O)N[C@@H](CC(=O)O)C(=O)N[C@H](C(=O)N[C@@H](CO)C(=O)N[C@@H](CCC(N)=O)C(=O)N[C@H](C(=O)N[C@@H](CCC(N)=O)C(=O)N[C@@H](CC(=O)O)C(=O)N1CCC[C@H]1C(=O)N[C@@H](CC(N)=O)C(=O)N[C@@H](CC(=O)O)C(=O)N[C@@H](CCC(N)=O)C(=O)N[C@@H](Cc1ccc(O)cc1)C(=O)N[C@@H](CCC(=O)O)C(=O)N1CCC[C@H]1C(=O)N[C@@H](Cc1ccccc1)C(=O)O)C(C)C)C(C)C [copper-64 labelled]", "test system": "GZMB-/- mouse bearing CT26 tumour, lung", "conditions": "dose not given, 2 h, checkpoint inhibitor-treated", "measurement": "tissue uptake", "result": "2.86 ± 0.4 %ID/g"}
{"SMILES": "N=C(N)NCCC[C@@H](NC(=O)[C@H](N)Cc1c[nH]c2ccccc12)C(=O)N[C@H](CCCCN)C(=O)N[C@H](Cc1c[nH]c2ccccc12)C(=O)N[C@H](CCCNC(=N)N)C(=O)N[C@H](CCCCN)C(=O)N[C@H](Cc1c[nH]c2ccccc12)C(=O)N[C@H](CCCNC(=N)N)C(=O)N[C@H](CCCCN)C(=O)N[C@H](Cc1c[nH]c2ccccc12)C(=O)N[C@H](CCCNC(=N)N)C(=O)N[C@H](CCCCN)C(N)=O", "test system": "mouse, lung", "conditions": "intravenous, 30 mg/kg single dose, 7 days", "measurement": "organ index", "result": 0.73}
{"SMILES": "CCCC[C@H]1C(=O)N(C)[C@@H](CCCC)C(=O)N[C@@H](CCCNC(=O)CN2CCN(CC(=O)O)CCN(CC(=O)O)CCN(CC(=O)O)CC2)C(=O)N[C@H](C(=O)NCC(N)=O)CSCC(=O)N[C@@H](Cc2ccc(O)cc2)C(=O)N(C)[C@@H](C)C(=O)N[C@@H](CC(N)=O)C(=O)N2CCC[C@H]2C(=O)N[C@@H](Cc2c[nH]cn2)C(=O)N[C@@H](CC(C)C)C(=O)N(C)CC(=O)N[C@@H](Cc2c[nH]c3ccccc23)C(=O)N[C@@H](CO)C(=O)N[C@@H](Cc2c[nH]c3ccccc23)C(=O)N1C [gallium-68 labelled]", "assay": "radio-HPLC", "test system": "fetal bovine serum", "conditions": "60 min, 37 °C", "measurement": "radiochemical purity", "result": "98.2%"}
{"SMILES": "O=C1NC(=O)c2c1c1cc(F)c[n+]3c1c1c2c2cc(O)ccc2[n]1[Ru-4]312([N]=C=S)[S+]3CC[S+]1CC[S+]2CC3 (stereo not drawn)", "tested on": "Serine/threonine-protein kinase tousled-like 2 (TLK2, Homo sapiens, UniProt Q86UE8)", "assay": "enzyme activity", "conditions": "100 nM, human enzyme, together with: 10 µM ATP", "how to read": "baseline: untreated", "measurement": "remaining activity", "result": "110%"}
{"SMILES": "CCCCCCCCCCCCCCCC(=O)N[C@@H](CCC(=O)NCCOCCOCCC(=O)NCCOCCOCCC(=O)NCCCC[C@H](NC(=O)[C@H](CC(=O)O)NC(=O)[C@H](CC(C)C)NC(=O)[C@H](Cc1ccc(O)cc1)NC(=O)[C@H](CCCCN)NC(=O)[C@H](CO)NC(=O)[C@H](Cc1ccc(O)cc1)NC(=O)[C@H](CC(=O)O)NC(=O)[C@H](CO)NC(=O)[C@@H](NC(=O)[C@H](Cc1ccccc1)NC(=O)[C@@H](NC(=O)CNC(=O)[C@H](CCC(N)=O)NC(=O)[C@@H](CO)NC(=O)[C@@H](N)Cc1c[nH]cn1)[C@@H](C)O)[C@@H](C)O)C(=O)N[C@@H](CCCNC(=N)N)C(=O)N[C@@H](CCCNC(=N)N)C(=O)N[C@@H](C)C(=O)N[C@@H](CCC(N)=O)C(=O)N[C@@H](CC(=O)O)C(=O)N[C@@H](Cc1ccccc1)C(=O)N[C@H](C(=O)N[C@@H](CCC(N)=O)C(=O)N[C@@H](Cc1c[nH]c2ccccc12)C(=O)N[C@@H](CC(C)C)C(=O)N[C@@H](CC(C)C)C(=O)N[C@@H](CC(N)=O)C(=O)N[C@H](C(=O)NCC(=O)NCC(=O)N1CCC[C@H]1C(=O)N[C@@H](CO)C(=O)N[C@@H](CO)C(=O)NCC(=O)N[C@@H](C)C(=O)N1CCC[C@H]1C(=O)N1CCC[C@H]1C(=O)N1CCC[C@H]1C(=O)N[C@@H](CO)C(N)=O)[C@@H](C)O)C(C)C)C(=O)O", "assay": "measured: ALP", "test system": "rhesus monkey, male", "conditions": "subcutaneous, 300 µg/kg once daily, 28 days", "measurement": "serum enzyme activity", "result": "269 ± 79.1 U/L"}
{"SMILES": "CCCCCCCCCCCC(=O)C(C)C(=O)N1CCC[C@H]1C(=O)NC(C)(C)C(=O)NC(C)(C)C(=O)NC(C)(C)C(=O)N[C@](C)(CC)C(=O)NCCC(=O)N[C@@H](C)C(=O)N[C@](C)(CC)C(=O)N[C@@H](C)C(=O)N[C@@H](CC(C)C)C(=O)N[C@](C)(CC)C(=O)NCCC(=O)N[C@@H](C)C(=O)N[C@](C)(CC)C(=O)NCCC(=O)N[C@@H](C)C(=O)NC(C)(C)C(=O)NC(C)(C)C(=O)NC(C)(C)C(=O)N[C@@H](C)C(=O)N[C@@H](CC(=O)O)C(=O)O (stereo partly drawn)", "assay": "LC-MS", "test system": "buffer with human neutrophil elastase", "conditions": "40 µM, 60 min, pH 7.5, 37 °C", "how to read": "baseline: 0 h", "measurement": "remaining intact peptide", "result": "66.1% and 73.5%"}
{"SMILES": "CC(=O)NCCCC[C@@H]1NC(=O)[C@H](Cc2c[nH]c3c(C)cccc23)NC(=O)[C@H]([C@@H](C)O)NC(=O)[C@H](CC(N)=O)NC(=O)[C@@H](NC(C)=O)C(C)(C)SSC(C)(C)[C@@H](C(=O)N[C@@H](Cc2ccc(OCCN)cc2)C(=O)N[C@@H](Cc2ccc3ccccc3c2)C(=O)NC2(C(=O)N[C@@H](CCC(=O)O)C(=O)N[C@@H](CC(N)=O)C(=O)N[C@@H](Cc3cccnc3)C(=O)N(C)CC(N)=O)CCOCC2)NC1=O", "assay": "equilibrium dialysis", "test system": "mouse, plasma", "conditions": "0.1 µM", "measurement": "plasma protein binding", "result": "53.4 ± 2.7%"}
{"SMILES": "CC(C)(C)C(=O)OCOP(=O)(OCOC(=O)C(C)(C)C)C1CCCN(O)C1=O (stereo not drawn)", "tested on": "T47D", "measurement": "log GI50", "result": "-6.26 log M"}
{"SMILES": "CCCCCCCC(=O)N[C@@H](CCCNC(=N)N)C(=O)N[C@@H](Cc1c[nH]c2ccccc12)C(=O)N[C@@H](CCCCN)C(=O)N[C@H](C(=O)N[C@@H](Cc1ccccc1)C(=O)N[C@@H](CCCCN)C(=O)N[C@@H](CCCCN)C(=O)N[C@H](C(=O)N[C@@H](CCC(=O)O)C(=O)N[C@@H](CCCCN)C(=O)N[C@H](C(=O)NCC(=O)N[C@@H](CCC(N)=O)C(=O)N[C@@H](CC(N)=O)C(=O)N[C@H](C(=O)N[C@@H](CCCNC(=N)N)C(=O)N[C@@H](CC(=O)O)C(=O)NCC(=O)N[C@H](C(=O)N[C@H](C(=O)N[C@@H](CCCCN)C(=O)N[C@@H](C)C(=O)NCC(=O)N1CCC[C@H]1C(=O)N[C@@H](C)C(=O)N[C@H](C(=O)N[C@@H](C)C(=O)N[C@H](C(=O)N[C@H](C(=O)NCC(=O)N[C@@H](CCC(N)=O)C(=O)N[C@@H](C)C(=O)N[C@@H](C)C(=O)N[C@H](C(=O)N[C@H](C(N)=O)[C@@H](C)CC)[C@@H](C)O)C(C)C)C(C)C)C(C)C)C(C)C)[C@@H](C)CC)[C@@H](C)CC)C(C)C)[C@@H](C)CC)[C@@H](C)CC", "test system": "mouse erythrocytes", "conditions": "32 µM, 1 h, 37 °C", "measurement": "hemolysis", "result": "< 8%"}
{"SMILES": "CSCC[C@H](NC(=O)CNC(=O)[C@H](CCCCN)NC(=O)[C@H](CC(C)C)NC(=O)[C@@H]1CCCN1C(=O)[C@H](CO)NC(=O)[C@H](Cc1c[nH]cn1)NC(=O)[C@H](Cc1c[nH]c2ccccc12)NC(=O)[C@H](CCCNC(=N)N)NC(=O)[C@H](CC(C)C)NC(=O)[C@H](CCCNC(=N)N)NC(=O)[C@H](Cc1c[nH]c2ccccc12)NC(=O)[C@H](CS)NC(=O)CCCCCNC(=O)CN1CCN(CC(=O)O)CCN(CC(=O)O)CCN(CC(=O)O)CC1)C(=O)O [copper-64 labelled]", "assay": "ex vivo biodistribution", "test system": "C57BL/6J mice bearing B16-F10 tumours, thymus", "conditions": "intravenous, 1.85 MBq, 30 h", "measurement": "tissue uptake", "result": "1.32 %ID/g"}
{"SMILES": "O=C(c1cc(Cc2n[nH]c(=O)c3ccccc23)ccc1F)N1CC(CNC2CC2)C1", "test system": "female ICR mouse, plasma", "conditions": "intravenous, 20 mg/kg", "measurement": "plasma clearance", "result": "101 mL/min/kg"}
{"SMILES": "CN1Cc2cc(Cl)ccc2-n2c(nnc2C2CCN(c3cccc([18F])n3)CC2)C1", "test system": "C57BL/6 mouse male, stomach", "conditions": "intravenous, 3.7 MBq, 60 min", "measurement": "tissue uptake", "result": "9.48 ± 1.63 %ID/g"}
{"SMILES": "Cc1nc2cccc(OCC(C)(C)C(=O)NC(C)C)c2c(N)c1C(=O)[O-].[Na+]", "tested on": "Salmonella typhimurium", "test system": "TA1535", "conditions": "0.32 mg per plate, without S9, plate incorporation", "measurement": "revertant colonies per plate", "result": "14 ± 1"}
{"SMILES": "C#Cc1c(F)ccc2cc(O)cc(-c3ncc4c(N5CC6CCC(C5)N6C(=O)OC(C)OC(=O)c5ccccc5)nc(OC[C@@]56CCCN5C[C@H](F)C6)nc4c3F)c12 (stereo partly drawn)", "assay": "chemical stability", "test system": "simulated intestinal fluid", "conditions": "1 µM, 30 min", "measurement": "compound remaining", "result": "98.9%"}
{"SMILES": "COc1ccccc1-c1n[nH]c2nc(NC3CCN(C(=O)Cc4ccc(F)cc4F)CC3)ncc12", "assay": "bead binding, competition bead pull-down, measured: LINJ.21.0920", "test system": "Leishmania donovani extract", "conditions": "10 µM", "how to read": "baseline: vehicle", "measurement": "relative abundance", "result": 0.87}
{"SMILES": "C=Cc1c(C)c2cc3nc(c(CC(=O)[O-])c4[n-]c(cc5nc(cc1[n-]2)C(C)=C5CC)c(C)c4C(=O)[O-])C(CCC(=O)[O-])C3C.[Cu+2].[Na+].[Na+].[Na+] (stereo not drawn)", "test system": "Wistar rat, female", "conditions": "oral, 1000 mg/kg daily, 28 days", "measurement": "serum albumin", "result": "1 ± 0.19 g/dL"}
{"SMILES": "CN(C)[C@H]1C[C@@]23CC[C@@]4(O2)C(=CC[C@]2(C)[C@@H](c5ccc6ccncc6c5)CC[C@H]24)C=C3[C@@H](O)[C@@H]1O", "tested on": "Ribosomal protein S6 kinase alpha-2, kinase domain 1 (RPS6KA2, Homo sapiens, UniProt Q15349)", "assay": "ATP probe labelling, inhibitor, KiNativ profiling", "conditions": "0.1 µM", "measurement": "inhibition", "result": "-8.5%"}
{"SMILES": "Cc1cc(C(=O)Nc2nc3cccc(C)c3n2[C@H]2CCCCN(C(=O)/C=C/CN(C)C)C2)ccn1", "tested on": "Trypanosoma brucei", "assay": "propidium iodide flow cytometry", "test system": "bloodstream form", "conditions": "concentration not given, 24 h", "measurement": "cells in G2 phase", "result": "33.2%"}
{"SMILES": "C=CC(=O)Nc1cccc(Cn2ncc3cnc(Nc4cnn(CCOC)c4)nc32)c1", "test system": "Sprague-Dawley rat male, serum", "conditions": "oral, 180 mg/kg, day 28, 28-day subacute toxicity", "measurement": "serum cholesterol", "result": "1.33 ± 0.31 mM"}
